Results from different studies.
Every numbered part comes from another study and shows a few of its results, in no order. Positions count from the first letter of the parent shown.

Sample 1
Target: CCNF, cyclin fold, Cln2 fusion (human)
Method: yeast growth competition, sequencing
Matrix: yeast
Setting: strong parent motif
Baseline: not given
Direction: higher = stronger binding
Starting sequence: USP37 docking peptide (human); PSAKRSLGFLPQP
Change | normalised enrichment score
S6A | 4.6
F9A | -0.102
R5A | 0.0143
P13A | 3.24
S2A | 3.28
Q12A | 4.1

Sample 2
Target: Histone acetyltransferase KAT6A, winged helix 1, GST fusion (KAT6A, Homo sapiens, UniProt Q92794, residues 1-85)
Method: protein binding microarray
Form: double-stranded DNA, one strand shown
Matrix: in vitro
Tested at: not given
Setting: 8-mer, flanks averaged, mean of 2 arrays, mostly near background
Baseline: not given
Direction: higher = stronger binding
Target sequence (chain): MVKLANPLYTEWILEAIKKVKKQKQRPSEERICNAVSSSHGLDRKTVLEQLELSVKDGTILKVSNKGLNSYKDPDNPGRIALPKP
Oligonucleotide | E-score
CAGCTGGA | -0.271
TAGGTACA | -0.101
CGAATTCG | 0.146
CAATCATA | -0.00839
CTCAACAG | -0.0675
GTTCAGAA | -0.0412
CCTTAAAC | 0.0486
TGAAACAA | -0.249
AATCGAAG | -0.159
ATGGCGGA | 0.124
CAGGCTTA | -0.139
ACGACGCA | 0.0255
AAGCATTG | -0.0837
CGAGTTAA | -0.0748
AATCCTAT | -0.0896
TCACGCAA | -8.5e-05
GGCAAATA | 0.000225
GAAACCTA | -0.0417
GGGGGACC | 0.0506
CACAGATA | -0.224
GGGGAGGA | 0.0636
ATCACTCA | -0.0225
TGATAGAA | -0.23
AATGACAA | -0.283

Sample 3
Target: RING finger protein unkempt homolog, zinc fingers 1-6, SBP tag (UNK, Homo sapiens, UniProt Q9C0B0, residues 30-357)
Chain of UniProt Q9C0B0 (30-357, looked up): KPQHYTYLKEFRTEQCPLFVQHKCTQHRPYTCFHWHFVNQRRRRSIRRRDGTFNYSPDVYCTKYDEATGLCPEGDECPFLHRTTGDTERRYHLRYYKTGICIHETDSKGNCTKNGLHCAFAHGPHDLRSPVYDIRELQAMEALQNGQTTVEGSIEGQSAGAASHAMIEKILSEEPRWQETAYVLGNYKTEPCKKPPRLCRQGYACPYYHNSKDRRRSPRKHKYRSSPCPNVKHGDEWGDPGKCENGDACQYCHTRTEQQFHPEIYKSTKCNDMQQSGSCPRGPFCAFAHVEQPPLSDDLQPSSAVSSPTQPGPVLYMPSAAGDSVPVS
Method: RNA Bind-n-Seq
Form: RNA
Matrix: in vitro
Tested at: 100 nM
Setting: RNA with constant flanks, vertebrate orthologous sites, ends assumed
Baseline: input RNA pool
Direction: higher = stronger binding
All sequences stand within: GGGAGUUCUACAGUCCGACGAUC … CAACAGAGGAUUGAGCAUCA
Oligonucleotide | bound/input enrichment
UAUUAGUGUCAUACCAGCAUAUUAACCUCUCGUCUGUGCACAGCUUCCAACGUUACCGUCUAGUUAGAUUUUUAUUUAAAAUAUGAAAAACUGCUUUUCCCAAGACGUUUUUUAAAAACA | 1.36 ratio
AAAUAUACUUCAUGCCAUGGACUCCGUACCGCACGGAUACUUUGAUAGAAUAUGCUUCCUUGGAGGACUUCCAGAACGGACGCCAGCAGACGACGUACAAACUCCCAAACCGAGUGGAUG | 0.594 ratio
UAAAGGAGAGACUCCUGUGAUUUUUAAUACUGCUAUUUGUUCUCUUUAGAUAGUCCAGUAUGGCAUUUUCAACAGAACUGGUUUAUUGACAGUUCUCACCUAAGUCCUCAUAAAGAAUCA | 0.16 ratio
UUUUAUUGAUCAGGUCUGUAAAUGUGUACUAAAAAAAUCAGAGUUUAUUUAUAAACAGAAUAGUUUAUUUAAAGAGAAGGUCUUUCUUCAUUGAUAUUGUGGUAUGCAUUAAUUCCAUUU | 0.168 ratio
AAUGACAGUUGGAAGAAAAACGAGGUUGUGGUUAAAAAGUAGGAGCUAUUAGGAAGAAAAGUGAUAAAUGUCAAGACUCAGGUAGCAAGAGAAUAGAGAUGCAGGUCACUGAGUCUCCAG | 0.446 ratio
CCUGAAGCUUUGUGUUUGGCUGCACCUGCAUAAGCUGCUACAAAUAGAAUAAAGAAUUCAUAGCCUGUAUCUAUCAUUUAGAUGCAUGGAAAAAUGGGCUUUGCACACAAUGGGUUUGAA | 2.03 ratio
UCUUCAACUUGUUCUAGCUUGUGACCCUUCAAAGCUGGGUCAGGUGUUAGUGCUAGGUACUAGAAAUUUUCAUUUCUUGAUUGCCACUGCUCAGAGAGACAGAUGUUGAAAACAGGAAUA | 0.271 ratio
UGUCUUGGUUUGGGGUAGAGGGGAGGGAGGGGCAGGACAGUGUGGAAUCUCUAGGGUGUAUGGGUAGAUAGGCUGCACGGUUAGUUCUAAUUGGGCCUUUAUGUUAAAAACCUCUGGGGG | 0.879 ratio
CUUUUUAUUGAUCAGGUCUGUAAAUGUGUACUAAAAAAAUCAGAGUCUAUUUAUAAACAAUAGUUUAUUUAAAGAGGUCUUUCCUCAUCGAUAUUGUGGUAUGCAUAAUUCUUUUUGUUA | 0.179 ratio
UACUGUUGUUAAGCACUGUUCCAGACCGUGUCUGACUUUAGUGUAACCUAGGAGAUUUUAUAGUUUUAUUUUAAUGGAAUCCUGCCUGAUGCAGAGCAGUGGGGAGAGCAGUCUUCUACG | 2.54 ratio
UCAUCUCUUUUUAUAUGUCCAAAAAUGGCUUUGAAUUUUUAAACAGUUGCUAGUUUUAAUUAGCUCUGUUCUCAUGAAGUAUUGUUAUAGUUCACCACAAACAUAUCUGUCUGAUUACUU | 0.375 ratio

Sample 4
Target: ABI1, truncated, D143A, DHFR fusion (Arabidopsis thaliana)
Method: DHFR PCA, deep sequencing
Matrix: yeast
Setting: methotrexate growth selection, single substitutions
With: (+)-ABA 0.39 µM
Baseline: wild-type fitted maximum
Direction: higher = stronger binding
Starting sequence: PYL1, truncated, DHFR fusion (Arabidopsis thaliana); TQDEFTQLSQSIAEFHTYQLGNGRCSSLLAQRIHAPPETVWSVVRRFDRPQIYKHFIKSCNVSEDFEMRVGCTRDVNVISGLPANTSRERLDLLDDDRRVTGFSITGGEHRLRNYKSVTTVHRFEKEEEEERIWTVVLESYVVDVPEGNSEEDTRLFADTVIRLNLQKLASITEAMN; partner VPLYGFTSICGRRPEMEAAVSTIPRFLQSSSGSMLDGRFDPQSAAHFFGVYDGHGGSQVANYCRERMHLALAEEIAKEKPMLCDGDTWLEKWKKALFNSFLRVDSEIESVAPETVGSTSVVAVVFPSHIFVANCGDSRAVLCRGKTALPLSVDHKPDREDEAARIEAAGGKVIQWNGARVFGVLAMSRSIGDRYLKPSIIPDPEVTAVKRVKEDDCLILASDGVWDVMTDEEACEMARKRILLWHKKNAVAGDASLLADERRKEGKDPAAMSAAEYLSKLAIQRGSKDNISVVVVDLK
Change | relative binding score [%]
L29D | -1.26
H34Q | 45.3
I133H | 47.4
S11V | 52.6
N77I | 51.1
E14N | 4.74
F5Y | 40.1
D144L | -28.6
A30G | 17
N61E | 62
S27V | 1.03
G23P | 3.94
N22L | 35.6
I33L | -4.72

Sample 5
Target: XBP1, bZIP domain (human)
Method: DHFR protein complementation
Matrix: yeast
Setting: single substitutions, most at no-binding floor
Baseline: wild-type JUN-FOS pair
Direction: higher = stronger binding
Starting sequence: JUN, bZIP domain (human); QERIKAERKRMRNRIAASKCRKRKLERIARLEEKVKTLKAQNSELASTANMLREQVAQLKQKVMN; partner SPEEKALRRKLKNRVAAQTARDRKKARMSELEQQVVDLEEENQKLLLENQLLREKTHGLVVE
Change | binding fitness
T48E | -0.456 natural log
S43Q | -0.325 natural log
Q41D | -1.25 natural log
V56E | -0.92 natural log
S47A | -0.334 natural log
L38A | -1.56 natural log
R30V | -0.253 natural log
N42A | -1.42 natural log
I28W | -1.22 natural log
Q41A | -0.795 natural log
A40P | -1.53 natural log
R30T | -0.478 natural log
S47E | -0.412 natural log
M51C | -1.03 natural log
T37R | -0.712 natural log
Q41K | -0.812 natural log
A40Q | -0.464 natural log
L59P | -0.832 natural log
Q55D | -1.38 natural log
E33G | -1.39 natural log
L45S | -1.41 natural log
E44P | -1.55 natural log
Q41G | -1.36 natural log
S47Y | -0.9 natural log

Sample 6
Target: RNA binding protein fox-1 homolog 2, RRM domain, GST-SBP tag (RBFOX2, Homo sapiens, UniProt O43251-10, residues 100-194)
Method: RNA Bind-n-Seq
Form: RNA
Matrix: in vitro
Tested at: 365 nM
Setting: natural RNA segment, single round, ends assumed
Baseline: no-protein control
Direction: higher = stronger binding
All sequences stand within: GGGAGUUCUACAGUCCGACGAUC … UGGAAUUCUCGGGUGCCAA
Target sequence (chain): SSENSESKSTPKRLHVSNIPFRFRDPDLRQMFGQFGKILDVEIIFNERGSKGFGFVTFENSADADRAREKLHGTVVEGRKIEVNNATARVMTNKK
Oligonucleotide | RBNS enrichment (R)
GUCACCUCUGCUUGGGCUGAUUGACAGAGGUCAGUCAUUACAGCCCCUUAUGCCUCUUCCAUGGGAACAAAUACUGUGCAGAUGUUUGUAAGUUAAACAUAAGACACAGG | 0.738
GUGCAUUGGGAAGGAUCUUUACUGCUUUGUGCUUGGCAUGUCAUUAUUUUCCAUUUGACAUUAGGGCCUUUCCAAAAUGAAUGUGAGGAAUUGCUUUCACUUCAAGACUU | 0.806
UGCCUUCUUCAGAAGCUUGGAAAUCGACACACAAAACAGUGCACAUUUAGUUCACUGCUAAACAAAUUAAAGCACACUUUUCAGGACUUGCUGGGUCACCUUUUCCUGAG | 0.419
CUUGCCUUCUGAAGUGGCACAAACCUGUGUUUAUAUAUUUAAAAGAUACUCUAGGAUGAUCACUUGUGCUUAGCUUAGCAUUGUAACUCUUUAAGUCUAUAUUUUCCUCA | 0.435
UCAAACAGAAUGAACUGCUAGAGCCCAACUCUUUUAAUACACCAAAGGAAUUAUGGGUGGGUAUUUUUUUAAUUGAACUCAUUUUUCGGUUGUCUGACCAUAACAUGAUU | 0.585
CCAAGAGAAACCUCAGUUUGGCAUGGUUCUUCAGGGUAGCUUCCGAGUAGAAAUAGUCUGCUGCAAAUCCUAAACUUAAGAUCCCUGCGCUAGGUUGCUAGAGACUGCGG | 0.601
ACAAUCCCCAUCAGGUAGCUGUCUAACCCCCAGCUGGGUCUAAUCCUUCUCAUUACCCACCCGACCUGGCUGCCCCUCACCUUGGGCUGGGGGACUGGGGGGCCAUUUCC | 0.491
CGAGGAGUGUAACUGAACCAGGAAUAUUUCCUCCAUUCCUGCUCUCCCACUGCACACAGGGUGGUGGCACAUUAUCCCUCUGGGGGGUGGGGACGCCUGUUGUUUUGGCU | 1.19
CAAACUGUUGAUUACAGGUGCACUACAGGUAUGCUCUUUCAGUCUAUCUGGGGGCACAUAGGUGAGUCUGCUCCACUCAGAAGGAAGCAUACCUCUGCCCUCAUCCAGGG | 0.48
GUAAAACUUACUAAAAGAAAAGAGGUUUGUGUUCACAUUAAAUGGUUUUGGUUUGGCUUCUUUUAGUCAGGCUUUCUGAACAUUGAGAUAUCCUGAACUUAGAGCUCUUC | 0.423
AGGGCGACGACCCUCGCCGCGGGACCCGGGACUCGAGCCCGGGACUUCGCAGCUACAGCACAUCUAUUUUUAAUAUUGUGCUGAGCAAGACAGAUCGCUUGCAUAUUUUU | 0.348
AGAGCCGUGGUCCUUUGGGGUGAACUACCUUGGUUCCCCCACUGAUCACAAAAACAUGGUGGGUCCAUGGGCAGAGCCCAAGGGAAUUCGGUGUGCACCAGGGUUGACCC | 0.229

Some of these lines once more (sample 2):
Oligonucleotide | E-score
GTTCAGAA | -0.0412
ACGACGCA | 0.0255
CAGGCTTA | -0.139
GGGGAGGA | 0.0636
AATGACAA | -0.283
GAAACCTA | -0.0417
CAGCTGGA | -0.271
CAATCATA | -0.00839
